Assay results gathered from unrelated publications.
Parts stem from different laboratories: compare values within a part only.

Series 1 — technique: competition protein-binding microarray; molecule type: double-stranded DNA, one strand shown; matrix: in vitro; concentration: 2 µM; added: Cbf1 competitor, 0.05 µM; direction: higher = stronger binding
Target: Phosphate system positive regulatory protein PHO4, full length, GST-tagged (PHO4, Saccharomyces cerevisiae, UniProt P07270, residues 1-312)
Setting: whole 60-bp probe, lowest competitor level
Target sequence (chain): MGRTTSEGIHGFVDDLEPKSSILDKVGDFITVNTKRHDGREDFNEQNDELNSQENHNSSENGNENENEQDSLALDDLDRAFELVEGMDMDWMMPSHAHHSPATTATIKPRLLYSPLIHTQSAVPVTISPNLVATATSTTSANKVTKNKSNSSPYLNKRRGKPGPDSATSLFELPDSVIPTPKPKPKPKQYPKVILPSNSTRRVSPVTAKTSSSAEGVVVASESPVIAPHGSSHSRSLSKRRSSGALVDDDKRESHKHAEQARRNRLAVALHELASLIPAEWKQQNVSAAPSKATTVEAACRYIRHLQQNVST
Oligonucleotide	fluorescence intensity [a.u.]
ACACCAAATCCGAGTCACGTTCCTTCTTGATTAGTGGTCTTGATTCGCTTGACGCTGCTG	15400
AAATTACTAAGTTTTCACGTGTCCTACCCCGTATGAGTCTTGATTCGCTTGACGCTGCTG	12100
CTTCTGTAAATTTGACGCGTGGGTGGACGCGCCCCGGTCTTGATTCGCTTGACGCTGCTG	9060
GTCTTGTCTCATTGACAGGTGGGTGTCCCCACTTCAGTCTTGATTCGCTTGACGCTGCTG	5840

Series 2 — target: Sox, HMG box (Pigoraptor chileana); technique: Spec-seq; molecule type: double-stranded DNA, one strand shown; matrix: in vitro; concentration: not given; setting: whole probe, mean of replicates; relative to: not given; direction: lower = stronger binding; all sequences stand within: GAGTCGTCTCGTCAGCAC … CCGTAGAGCACTCAGGTC
Residues (chain): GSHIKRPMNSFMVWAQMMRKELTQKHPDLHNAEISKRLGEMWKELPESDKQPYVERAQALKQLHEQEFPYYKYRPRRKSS
Oligonucleotide	relative binding energy [ln ratio]
ACGTGTT	-0.37
CATCCAG	0.283
TACAGTT	-0.458
CATGCCT	0.811
TCGTGTT	0.0649
GATCGTT	1.17
GGCCGTT	1.09
CATGGTG	0.536

Series 3 — technique: protein-binding microarray; molecule type: double-stranded DNA, one strand shown; matrix: in vitro; concentration: not given; direction: higher = stronger binding
Target: Transcriptional repressor CTCF (CTCF, Homo sapiens, UniProt P49711, residues 1-727, full length assumed)
UniProt P49711, sequence (whole entry, looked up): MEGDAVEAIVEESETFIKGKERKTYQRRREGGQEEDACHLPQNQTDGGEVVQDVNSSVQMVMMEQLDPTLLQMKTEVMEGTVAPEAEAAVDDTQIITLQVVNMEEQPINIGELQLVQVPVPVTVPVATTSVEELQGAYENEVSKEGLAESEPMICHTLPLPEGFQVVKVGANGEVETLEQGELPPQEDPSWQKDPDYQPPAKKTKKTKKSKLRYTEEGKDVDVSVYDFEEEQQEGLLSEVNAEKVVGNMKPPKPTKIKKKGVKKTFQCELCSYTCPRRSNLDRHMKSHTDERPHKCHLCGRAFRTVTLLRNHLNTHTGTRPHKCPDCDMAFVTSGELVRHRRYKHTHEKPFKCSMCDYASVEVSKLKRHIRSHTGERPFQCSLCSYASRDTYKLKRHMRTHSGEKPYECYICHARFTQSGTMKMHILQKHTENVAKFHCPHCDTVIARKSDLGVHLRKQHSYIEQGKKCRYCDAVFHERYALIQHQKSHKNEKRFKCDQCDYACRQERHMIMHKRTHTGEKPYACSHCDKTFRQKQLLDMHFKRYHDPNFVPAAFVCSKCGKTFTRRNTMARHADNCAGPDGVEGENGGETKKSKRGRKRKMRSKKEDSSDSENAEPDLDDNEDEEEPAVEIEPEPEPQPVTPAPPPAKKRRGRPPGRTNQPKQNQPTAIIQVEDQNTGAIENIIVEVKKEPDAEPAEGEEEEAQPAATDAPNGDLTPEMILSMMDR
Setting: k-mer, scored over probes, only values ≥0.25
Oligonucleotide	E-score
AATTATAC	0.341
GCAATACA	0.304
AAATATTT	0.307
TGTGAAAA	0.324

Other studies, line by line
Substance	target	test	system	conditions	how to read	measurement	value
PhoQ, residues 284 288 289 292 302 303 ALASRC	PhoP, residues 12 14 15 18 19 NQCAL (Escherichia coli, UniProt P23836)	Sort-seq, item: YFP reporter	E. coli	PhoQ-PhoP variant library, added: 10 µM Mg2+	relative to: high Mg2+ state, higher = stronger signaling	fold induction	3.31

Excerpt of the above (series 3):
Oligonucleotide	E-score
GCAATACA	0.304
TGTGAAAA	0.324
